Assay results collected from several papers.
Lines come from different studies, so protocols differ. ± gives the spread as reported.
SLC6A3: Sodium-dependent dopamine transporter (SLC6A3, Homo sapiens, UniProt Q01959)
Chain of UniProt Q01959 (whole entry, unmodified, looked up): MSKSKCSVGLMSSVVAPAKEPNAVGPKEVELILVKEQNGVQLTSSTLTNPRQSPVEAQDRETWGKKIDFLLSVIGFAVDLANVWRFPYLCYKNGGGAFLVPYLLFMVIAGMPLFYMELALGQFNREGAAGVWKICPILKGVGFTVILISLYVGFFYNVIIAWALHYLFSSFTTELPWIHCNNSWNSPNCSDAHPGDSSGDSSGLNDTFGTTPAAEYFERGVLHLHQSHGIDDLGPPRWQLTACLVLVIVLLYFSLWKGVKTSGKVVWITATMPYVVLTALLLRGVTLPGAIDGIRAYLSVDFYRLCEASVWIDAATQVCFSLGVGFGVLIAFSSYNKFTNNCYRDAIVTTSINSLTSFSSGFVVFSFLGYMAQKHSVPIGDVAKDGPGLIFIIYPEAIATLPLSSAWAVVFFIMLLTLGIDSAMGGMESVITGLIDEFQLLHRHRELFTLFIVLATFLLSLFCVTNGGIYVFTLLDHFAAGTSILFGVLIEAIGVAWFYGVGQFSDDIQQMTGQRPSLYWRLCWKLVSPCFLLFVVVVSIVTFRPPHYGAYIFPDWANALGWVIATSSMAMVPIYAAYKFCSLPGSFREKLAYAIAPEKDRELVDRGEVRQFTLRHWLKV

With CCN(CC)C(=O)[C@@H]1C=C2c3cccc4[nH]cc(c34)C[C@H]2N(C)C1 the IC50 was greater than 100000 nM (SLC6A3; transporter uptake, inhibitor, radiometric).
CNC(C)C(=O)c1ccccc1 (stereo not shown) has an IC50 of 225 nM (SLC6A3; transporter uptake, inhibitor, radiometric).
The IC50 of CNC(C)Cc1ccc(O)c(OC)c1 (stereo not shown) is reported as 5600 nM (SLC6A3; transporter uptake, inhibitor, radiometric).
COC(=O)[C@H]1[C@@H](c2ccc(Cl)c(Cl)c2)C[C@@H]2CC[C@H]1N2CCOCCOCCOCCOCCOCCNC(=O)c1ccc2c(c1)C1(OC2=O)c2ccc(N3CCC3)cc2[Si](C)(C)c2cc(N3CCC3)ccc21 gave an IC50 of 102 nM (SLC6A3; transporter uptake, inhibitor, radiometric).
NCCc1ccc(O)cc1 has an IC50 of 4120 ± 810 nM (SLC6A3).
CCCC(C(=O)c1ccc(O)c(OC)c1)N1CCCC1 (stereo not shown) gave an IC50 of 7700 nM (SLC6A3; transporter uptake, inhibitor, radiometric).
For CCCC(C(=O)c1ccc2c(c1)OCO2)N(C)C (stereo not shown), the IC50 was 233 nM (SLC6A3; transporter uptake, inhibitor, radiometric).
NCCc1ccccc1 has an IC50 of 2740 ± 440 nM (SLC6A3).
For CC(N)C(=O)c1ccc2c(c1)OCO2 (stereo not shown), the IC50 was 34000 nM (SLC6A3; transporter uptake, inhibitor, radiometric).
For CCCNC(C)C(=O)c1ccc2c(c1)OCO2 (stereo not shown), the IC50 was 2380 nM (SLC6A3; transporter uptake, inhibitor, radiometric).
CCCC(C(=O)c1ccc(O)c(O)c1)N1CCCC1 (stereo not shown) gave an IC50 of 92 nM (SLC6A3; transporter uptake, inhibitor, radiometric).
CCc1ccc2[nH]c3nc(SCCNS(=O)(=O)c4ccc(NC(C)=O)cc4)nnc3c2c1 has an IC50 of 450 ± 80 nM (SLC6A3 (Homo sapiens, UniProt Q01959, C306A/W84C); MTSEA-biotin labelling protection; HEK293 cells expressing SLC6A3).
The IC50 of CCCC(NC)C(=O)c1ccc(Cl)cc1 (stereo not shown) is reported as 486 nM (SLC6A3; transporter uptake, inhibitor, radiometric).
With COc1cc([N+](=O)[O-])c(OC)cc1CCNCc1ccccc1OC the IC50 was greater than 100000 nM (SLC6A3; transporter uptake, inhibitor, radiometric).
The IC50 of CCCC(NC)C(=O)c1ccc(C)cc1 (stereo not shown) is reported as 188 nM (SLC6A3; transporter uptake, inhibitor, radiometric).
With CCCC(C(=O)c1ccc2c(c1)OCO2)N1CCCC1 (stereo not shown) the IC50 was 53 nM (SLC6A3; transporter uptake, inhibitor, radiometric).

A few entries again:
CNC(C)C(=O)c1ccccc1 (stereo not shown) has an IC50 of 225 nM (SLC6A3; transporter uptake, inhibitor, radiometric).
